Measurements pooled from the literature.
Each line is one published result; not all experiments were run side by side. ± gives the spread as reported.
Rac GTPase-activating protein 1: Rac GTPase-activating protein 1 (Homo sapiens, UniProt Q9H0H5)
USP14: Ubiquitin carboxyl-terminal hydrolase 14 (USP14, Homo sapiens, UniProt P54578)

SMILES | tested on | test | system | conditions | scale | quantity | result
C[Si](C)(C)C[C@H](CN)CC(=O)O | GABAA receptor, rat | binding, radioligand binding | – | 250 µM, with: [3H]muscimol | – | inhibition | 3%
COc1ccc2c(c1)-c1nc(N)sc1CC2 | Rac GTPase-activating protein 1 | enzyme activity, inhibitor, ADP detection | – | 10 µM | – | inhibition | 82.3%
COC1CN([C@H]2CC[C@H]([C@@]3(C)Oc4c(Cl)cc(C(=O)NCc5c(SC)cc(C)[nH]c5=O)c(C)c4O3)CC2)C1 | – | RNA-seq, refers to: PLSCR4 mouse homolog | mouse, HT-1376 xenograft, whole blood | dose not given | reference: vehicle | log2 fold change | 1.33
C=CC(=O)N1Cc2nc(-c3cc(-c4cc(Cl)cnc4Cl)c(F)cc3F)n(-c3ccncn3)c2C1 | Phosphatidylinositol 4-kinase type 2-alpha (PI4K2A, Homo sapiens, UniProt Q9BTU6) | cell-free assay, inhibitor | – | 1 µM | – | inhibition | 3.9%
COc1ccc(N(N=C2Sc3ccccc3C2=O)C(C)=O)cc1 | USP14 | enzyme activity, inhibitor | – | 17 µM | – | inhibition | 32%
CN(C)C/C=C/C(=O)Nc1ccc2nc(NCCCCCN(C)C)nc(NCCCCCCN(C)C)c2c1 | Histone-lysine N-methyltransferase SMYD3 (SMYD3, Homo sapiens, UniProt Q9H7B4) | enzyme activity, inhibitor, radiometric | – | 50 µM | – | inhibition | 31%
CNS(=O)(=O)Nc1nccc(Cc2c(C)c3ccc(Oc4ncccc4F)cc3oc2=O)c1F | HCC1428 | cell viability | – | 7 days | – | IC50 | > 1 µM
Cc1ccc(C)n1-c1ccc(C(=O)O)cc1O | USP14 | enzyme activity, inhibitor | – | 17 µM | – | inhibition | 39%
CC(=O)C12NC(C)(C)CC1(C)C(=O)C1=C2c2c(c3c4n2C(C)(C)CC2=C4C4(CC(C)(C)NC(C)(C4)C2=O)CC3(C)C)C(=O)C(C)(C)N1 (single isomer, unassigned; (+)) | Glutamate NMDA receptor; GRIN1/GRIN2B (GRIN1/GRIN2B, Homo sapiens, UniProt Q05586+Q13224) | ion current, antagonist, whole-cell patch clamp | HEK293T | 10 µM | – | inhibition | 2.86%
O=c1c(=NO)c(=NO)c(=O)c2ccccc12 | USP14 | enzyme activity, inhibitor | – | 17 µM | – | inhibition | 74%
Cc1ccc(C)n1-c1ccc(OCC(=O)O)cc1 | Rac GTPase-activating protein 1 | enzyme activity, inhibitor, ADP detection | – | 10 µM | – | inhibition | 55%
Cc1ncsc1-c1ccc(C(C)NC(=O)C2CC(O)CN2C(=O)C(NC(=O)CCCCCCCCCCN2CCCC(Nc3ncc(Cl)c(Nc4ccccc4S(=O)(=O)C(C)C)n3)C2)C(C)(C)C)cc1 (stereo not drawn) | 22Rv1 | RNA-seq, refers to: PLEKHA6 mRNA | – | concentration not given | reference: DMSO | log2 fold change | -2.81
COc1ccc(C(O)(c2ccc(OC)cc2)c2ccc3nccn3c2)cc1 | Sodium- and chloride-dependent glycine transporter 1 (SLC6A9, Homo sapiens, UniProt P48067) | cell-free assay | – | 1 µM | – | remaining signal | 98%
CC(C)(C)CNC(=O)C[C@H](NC(=O)CCc1ccccc1)C(=O)N[C@@H](Cc1cccnc1)C(=O)NCc1ccccc1Cl | Coagulation factor XII (F12, Homo sapiens, UniProt P00748) | enzyme activity, inhibitor | – | 100 µM | – | inhibition | 33%
O=C(N/N=C/c1cc[n+](Cc2ccccc2)c2ccccc12)c1cncc(C(=O)N/N=C/c2cc[n+](Cc3ccccc3)c3ccccc23)n1 | MYC parallel G4 DNA | FRET melting | – | 1 µM, DNA 0.2 µM, with: duplex DNA competitor 10 µM | – | ΔTm | 10.5 ± 0.2 °C
Cc1nn(-c2cccc(N)c2)c(=O)c2cnc(Nc3ccc(N4CCNCC4)cc3)nc12 | Serine/threonine-protein kinase pim-1 (PIM1, Homo sapiens, UniProt P11309) | kinase activity, inhibitor, SelectScreen kinase profiling | – | – | – | IC50 | > 10 µM
Nc1ncc(-c2cc(-c3cnn(CC(F)(F)F)c3)ncc2F)nc1C(=O)NC1CNCC(F)C1 (stereo not drawn) | CSNK1G2 | KINOMEscan | – | 1 µM | reference: DMSO control | remaining binding | 46%
C[Si]1(C[C@H](CN)CC(=O)O)CCCC1 | P2X receptor, rabbit | binding, radioligand binding | – | 70 µM, with: [3H]alpha,beta-methylene-ATP | – | inhibition | -9%
O=C(O)C1Nc2ccc(Br)cc2C2C=CCC12 (stereo not drawn) | Rac GTPase-activating protein 1 | enzyme activity, inhibitor, ADP detection | – | 10 µM | – | inhibition | 79.2%
CC1(C)C=C2C(=NN(c3ccccc3)C(N)=C2C#N)CO1 | USP14 | enzyme activity, inhibitor | – | 17 µM | – | inhibition | 4%
Nc1ccc2c(c1)OC1(CCCCC1)O2 | Rac GTPase-activating protein 1 | enzyme activity, inhibitor, ADP detection | – | 10 µM | – | inhibition | 82.6%
CCOc1ccc(S(=O)(=O)N=C2CC(Sc3nc[nH]n3)C(=O)c3ccccc32)cc1 (stereo not drawn) | USP14 | enzyme activity, inhibitor | – | 17 µM | – | inhibition | 81%
CCCC[C@H](NC(=O)COCCOCCNC(=O)CN1CCN(CC(=O)O)CCN(CC(=O)O)CC1)C(=O)N[C@H]1CC(=O)NCCCC[C@@H](C(N)=O)NC(=O)[C@H](Cc2c[nH]c3ccccc23)NC(=O)[C@H](CCCNC(=N)N)NC(=O)[C@@H](Cc2ccccc2)NC(=O)[C@H](Cc2c[nH]cn2)NC1=O [technetium-99m labelled] | – | – | C57 mouse, pancreas | intravenous, 0.037 MBq, 0.5 h | – | tissue uptake | 0.45 ± 0.15 %ID/g
CC1=C(C)C(=O)C(NCC2CCCO2)=CC1=O (stereo not drawn) | USP14 | enzyme activity, inhibitor | – | 17 µM | – | inhibition | 85%
O=C1CC(=O)N(c2ccccc2)N1c1ccccc1 | Rac GTPase-activating protein 1 | enzyme activity, inhibitor, ADP detection | – | 20 µM | – | inhibition | 36.7%
CN(Cc1ccc(/C=C/C(=O)NO)cc1)CC12CC3CC(CC(C3)C1)C2 | human 5-HT1A receptor | agonist radioligand binding | – | 0.05 µM | – | inhibition | 2%
CCOC(=O)C(Sc1nnc(-c2c[nH]c3ccccc23)n1C)C(=O)OCC | Rac GTPase-activating protein 1 | enzyme activity, inhibitor, ADP detection | – | 20 µM | – | inhibition | 40.3%
CC(=O)ON=C1Sc2ccccc2C1=O | USP14 | enzyme activity, inhibitor | – | 17 µM | – | inhibition | 34%
CCOC(=O)C1(C)C(Br)=C(Cl)C(=O)N1c1ccc(Cl)cc1 (stereo not drawn) | Rac GTPase-activating protein 1 | enzyme activity, inhibitor, ADP detection | – | 20 µM | – | inhibition | 48.5%
C[n+]1ccc(/C=N/NC(=O)c2ccc3ccc4ccc(C(=O)N/N=C/c5cc[n+](C)cc5)nc4c3n2)cc1 | MYC parallel G4 DNA | FRET melting | – | 1 µM, DNA 0.2 µM | – | ΔTm | 10.5 ± 0.5 °C

Some of these lines once more:
SMILES | tested on | test | system | conditions | scale | quantity | result
C[Si](C)(C)C[C@H](CN)CC(=O)O | GABAA receptor, rat | binding, radioligand binding | – | 250 µM, with: [3H]muscimol | – | inhibition | 3%
COc1ccc2c(c1)-c1nc(N)sc1CC2 | Rac GTPase-activating protein 1 | enzyme activity, inhibitor, ADP detection | – | 10 µM | – | inhibition | 82.3%
COC1CN([C@H]2CC[C@H]([C@@]3(C)Oc4c(Cl)cc(C(=O)NCc5c(SC)cc(C)[nH]c5=O)c(C)c4O3)CC2)C1 | – | RNA-seq, refers to: PLSCR4 mouse homolog | mouse, HT-1376 xenograft, whole blood | dose not given | reference: vehicle | log2 fold change | 1.33
C=CC(=O)N1Cc2nc(-c3cc(-c4cc(Cl)cnc4Cl)c(F)cc3F)n(-c3ccncn3)c2C1 | Phosphatidylinositol 4-kinase type 2-alpha (PI4K2A, Homo sapiens, UniProt Q9BTU6) | cell-free assay, inhibitor | – | 1 µM | – | inhibition | 3.9%
